Published values pooled from the literature.
Lines come from different studies, so protocols differ. ± marks the error that the study gave.

Cc1ccc(N(C)C(=O)/C=C/c2ccco2)cc1 — licking latency (cold plate test; mouse; oral, 30 mg/kg daily for 7 days, day 8, 30 min after dose): 20.2 ± 0.8 s
CSc1cc(C)nc(SC)c1NC(=O)CN1CCN(CCSc2nc3ccccc3[nH]2)CC1.Cl — tissue concentration (mouse, cerebrum; intranasal, 7 days daily, 120 min, HA 10 µL, LLOQ 0.5 ng/g): not detected
CCOC(=O)N1C[C@@H](C2CCCCC2)N[C@@H]([C@H](C)CC)C1 — logD (shake-flask, 1-octanol/buffer; pH 7.4): > 4.7
CNc1ccc(-c2nc3ccc(O)cc3s2)cc1 [carbon-11 labelled] — SUV (ex vivo biodistribution; APP/PS1 mouse, AD model, kidneys; intravenous, 30 min): 6.85 ± 5.77
O=C(O)CN1CCCN2CCN(Cc3ccccc3)CCCN(CC1)Cc1cccc(n1)C2 — intact complex (64Cu complex; 24 h, 70 °C, together with: DOTA excess): 95%
CCC[C@H](C)[C@H]1CN(C(=O)OCC)C[C@@H](c2cccc(Br)c2)N1 — logD (shake-flask, 1-octanol/buffer; pH 7.4): > 4.7
Cc1cc(Nc2cc3ncccc3c(N[C@@H]3C[C@H]4CC[C@@H](C3)N4CCC#N)n2)n[nH]1 — skin subcutaneous disorders incidence (healthy human subjects; oral, 300 mg, 2 weeks, single ascending dose): 17%
Cc1ccc([C@@H]2O[C@H](CO)[C@@H](O)[C@H](O)[C@H]2O)cc1Cc1ccc(-c2ccc(F)cc2)s1 — urinary calcium excretion change (Japanese type 2 diabetes patients; 200 mg, day 17, 24 h urine collection; baseline: baseline): -29.7 mg
C=CC(=O)N1CCC[C@@H](n2nc(-c3ccc(Oc4ccccc4)cc3)c3c(N)ncnc32)C1 — GSH adduct formation (PBS; 100 µM, 23 h, pH 7.45, 37 °C, together with: GSH 5 mM): 91%
Cl.[2H]C([2H])([2H])CC(=O)c1cnc(NC(=O)C2CC2)cc1Nc1cccc(-c2ncn(C([2H])([2H])[2H])n2)c1OC — half-life (geometric mean; human; oral, 10 mg once daily, day 1, fasted, liquid, multiple dose): 7.41 h
Cc1ccc([C@@H]2O[C@H](CO)[C@@H](O)[C@H](O)[C@H]2O)cc1Cc1ccc(-c2ccc(F)cc2)s1 — beta-hydroxybutyrate level (human haemodialysis patients, blood; 100 mg or 300 mg, safety monitoring): < 0.42 mmol/L
O=C1CCc2ccc(OCCCCN3CCN(c4cccc(Cl)c4Cl)CC3)cc2N1 — adverse event incidence (measured: Sedation; patients, CYP2D6 normal metabolizers; dose not given, long-acting oral or depot): 12%
O=C(Nc1nc2cccc(-c3ccc(CN4CCS(=O)(=O)CC4)cc3)n2n1)C1CC1 — patients with adverse event (measured: anaemia; rheumatoid arthritis patients; oral, 75 mg once daily, 4 weeks, any relatedness): 4.5%
C/C=C/C[C@@H](C)C(=O)[C@H]1C(=O)N[C@@H](C(C)C)C(=O)N(C)CC(=O)N(C)[C@@H](CC(C)C)C(=O)N[C@@H](C(C)C)C(=O)N(C)[C@@H](CC(C)C)C(=O)N[C@@H](C)C(=O)N[C@H](C)C(=O)N(C)[C@@H](CC(C)C)C(=O)N(C)[C@@H](CC(C)C)C(=O)N(C)[C@@H](C(C)C)C(=O)N1C — total plasma concentration (Sprague Dawley rat, plasma; intravenous infusion, 2.67 mg/h/kg, 4 h, 4.5 h constant infusion): 12200 ng/mL
CC[C@H](C)[C@H](NC(=O)[C@H](CO)NC(=O)[C@H](CCCNC(=N)N)NC(C)=O)C(=O)N[C@H]1CSSC[C@@H](C(=O)N[C@H](C(N)=O)[C@@H](C)O)NC(=O)[C@H](CCCNC(=N)N)NC(=O)[C@H](Cc2c[nH]cn2)NC(=O)[C@H](C)NC(=O)CNC(=O)[C@H](Cc2c[nH]c3ccccc23)NC(=O)[C@H](CC(=O)O)NC(=O)[C@H](CCC(N)=O)NC(=O)[C@H](Cc2cccc3ccccc23)NC(=O)[C@H](C(C)C)NC1=O — log retention factor (RP-HPLC, C18; 28% acetonitrile isocratic; pH 7.4): 0.603
NC1(C(=O)N[C@@H](CCO)c2ccc(Cl)cc2)CCN(c2nc[nH]c3nccc2-3)CC1 — incidence of Anaemia (metastatic CRPC patients; 480 mg b.i.d., any grade, treatment-related, together with: enzalutamide 160 mg daily): 20%
CCN1/C(=C/C(C)=O)Sc2ccc(F)cc21 — mean blood pressure (cynomolgus monkey; oral, 10 mg/kg, 0.5 h post-dose): 87 ± 4 mmHg
C[C@H](NC(=O)[C@H](CCC(N)=O)NC(=O)[C@H](C)NC(=O)[C@H](CCCNC(=N)N)NC(=O)[C@H](CCC(N)=O)NC(=O)[C@H](C)NC(=O)[C@H](CCCNC(=N)N)NC(=O)[C@H](CCC(N)=O)NC(=O)[C@H](C)NC(=O)[C@H](CCC(N)=O)NC(=O)[C@H](CCCNC(=N)N)NC(=O)[C@H](C)NC(=O)[C@H](CCC(N)=O)NC(=O)[C@H](CCCNC(=N)N)NC(=O)[C@H](C)NC(=O)[C@H](CCC(N)=O)NC(=O)[C@H](C)NC(=O)[C@H](CCCNC(=N)N)NC(=O)[C@H](CCC(N)=O)NC(=O)[C@H](C)NC(=O)[C@H](CCCNC(=N)N)NC(=O)[C@H](CO)NC(=O)[C@H](Cc1ccc(O)c(I)c1)NC(=O)CNC(=O)CNC(=O)CN)C(=O)N[C@@H](CCCNC(=N)N)C(=O)N[C@@H](CCC(N)=O)C(=O)N[C@@H](C)C(=O)N[C@@H](CCCNC(=N)N)C(=O)N[C@@H](CCC(N)=O)C(=O)O [iodine-125 labelled] — tissue uptake (H2/IL-6 transgenic BALB/c mice, both sexes, lower intestine; intravenous, 4 h): 8.2 %ID/g
CN(C)CCCN1c2ccccc2CC(O)c2ccccc21 (centres unmarked) — chromatographic hydrophobicity index (reverse phase LC, C18; acetonitrile gradient, 0.1% formic acid; converted from retention time; baseline: Valko CHI standards): 46.3
CNCc1ccc(-c2[nH]c3cc(F)cc4c3c2CCNC4=O)cc1 — abdominal distension incidence (patients; oral, 480 mg twice daily, all grades): 22.2%
OCc1nc2ccc(NCc3ccc(C(F)(F)F)cc3)cc2[nH]1 — tissue concentration (Balb/c mouse, male, kidney; oral, 10 mg/kg, 6 h): 489 ± 97.3 ng/g
CCOc1c([C@H](C)n2nc(C)c3c(N)ncnc32)cc(Cl)c(F)c1[C@@H]1CNC(=O)C1 — observations with HR ≤100 bpm (ECG; previously treated B-cell malignancy patients; oral, 20 mg once daily, baseline below thresholds): 100%
c1ccc(CN2CCCN3CCN(Cc4ccccc4)CCCN(CC2)Cc2cccc(n2)C3)cc1 — intact complex (64Cu complex; 2 h, pH 7.4, 37 °C, together with: DOTA excess): 99%
C/C(=N\c1ccc(O)cc1)c1cc2ccccc2n1C — remaining compound (processed rat plasma sample; 0.78 ng/mL, 24 h, room temperature, autosampler tray; baseline: nominal): 97.4 ± 6.3%
C[C@@H](Oc1ccc(S(C)(=O)=O)cc1C(=O)N1C[C@@H]2C[C@]2(c2cc(C(F)(F)F)on2)C1)C(F)(F)F — %AUC extrapolated (healthy young humans, plasma; oral, 25 mg single dose): 35%
CCCCC(CC)COC(=O)c1ccc(O)cc1 (centres unmarked) — mass balance (empty Transwells without cells; 5 µM, 60 min, basolateral to apical): 25%
CCn1cc(C(=O)N2CCOCC2)c(=O)c2cc(NC3Cc4ccccc4C3)cnc21 — half-life (human, fasted; oral suspension, 150 mg single dose, arithmetic mean): 9.26 h
CCOC(=O)N1C[C@@H](C2CCCCC2)N[C@@H](c2ccc(C(C)(C)C)cc2)C1 — logD (shake-flask, 1-octanol/buffer; pH 7.4): > 4.7
Cc1cc(/C=C/C#N)cc(C)c1Nc1ccnc(Nc2ccc(C#N)cc2)n1 — Ctau (human, normal renal function, plasma; oral, dose not given, 24 h, steady state, fixed-dose combination): 80 ng/mL
Cc1cc(NC2CCN(C(=O)OC3CCN(C(=O)/C=C/CN(C)C)C3)CC2)n2ncc(C(C)C)c2n1 (centres unmarked) — patients with adverse event (Phase I dose escalation CTCAE v4.0, measured: urinary tract infection; patients with advanced solid tumours; dose not given, QD dosing any grade): 2%
Cn1cnc2c(F)c(Nc3ccc(Br)cc3Cl)c(C(=O)NOCCO)cc21 — absorption lag time (population PK model; human, plasma; oral, sequential zero-first-order absorption, fasted): 0.28 h
Cc1cc(C(=O)NC(C)(C)COc2cccc3c2C(N)=NS(=O)(=O)N3)cc(C)n1 — Vz (Sprague-Dawley rat, male, plasma; intravenous, 1 mg/kg): 0.536 L/kg
Cc1cc(-c2nccc3c2ccn3CC(=O)Nc2ccc(-c3cnccn3)cn2)ccn1 — skin disorder TEAEs (healthy human volunteers; oral, 15 mg once daily, 14 days, multiple ascending dose): 11.1%
CCOC(=O)c1cnc(Nc2nc3ccccc3o2)nc1CN1CCN(c2ccccc2)CC1 — logD (octanol/buffer; pH 7.4): 4.07
CCc1nc(C(N)=O)c(Nc2ccc(N3CCC(N4CCN(C)CC4)CC3)c(OC)c2)nc1NC1CCOCC1 — Cmax (Japanese patients, plasma; oral, 200 mg, cycle 1 day 28, multiple doses, median): 886 ng/mL
CC(C)(C(=O)N1CCOc2c(C#N)cncc2C1)C(F)F — subjects with adverse event (measured: Insomnia; human; oral, 15 mg twice daily, 14 days, multiple ascending dose): 12.5%
Cc1ccc(C(=O)N(CCCN)C(c2nc3snc(C)c3c(=O)n2Cc2ccccc2)C(C)C)cc1 (centres unmarked) — patients with adverse event (mucosal inflammation grade ≥3 (CTCAE); human patients; intravenous, 13 mg/day): 0%
CCCCOc1nc(N)c2c(n1)N(Cc1cccc(CN3CCCC3)c1)CC(=O)N2 — grade 1 TEAE (human; oral, 2 mg, drug interaction trial): 6.7%
O=C[C@H]([18F])[C@@H](O)[C@H](O)[C@H](O)CO — tissue uptake (Kunming mice, turpentine inflammation, brain; intravenous, 0.74 MBq, 60 min): 4.37 ± 0.25 %ID/g
N#C[C@@]1(c2ccc3c(N)ncnn23)O[C@H](CO)[C@@H](O)[C@H]1O — CL/F (beagle dog, male; oral, 6.5 mg/kg, capsule): 4.32 mL/min/kg
C[C@@H](Nc1cc(F)cc(F)c1)c1cc(C(=O)N(C)C)cc2c(=O)cc(N3CCOCC3)oc12 — related serious adverse events (measured: Nausea; advanced solid tumour patients; oral, dose not given, dose finding): 1.6%
C/C(O)=C(\C#N)C(=O)Nc1ccc(C(F)(F)F)cc1 — blood/plasma ratio (mouse (CD-1, female), whole blood; 50 µM, 120 min, 37 °C): 0.63 ± 0.2
Cc1cc(-c2nnc(N)nc2-c2ccc(F)cc2)cc(Cl)n1 — patients with treatment-related adverse events (measured: Dizziness; human phase Ia/Ib NSCLC, post-immunotherapy; oral, 100 mg once daily): 11.8%
CN(CCC(=O)O)C(=O)c1ccc2c(c1)CC[C@@H]1[C@@H]2CC[C@]2(C)C(c3cncc(F)c3)=CC[C@@H]12 — direct bilirubin change (premenopausal women, endometriosis pain, serum; 60 mg twice daily, visit 6, median; baseline: baseline): 0.175 mg/dL
CC(C)(C)OC[C@@H]1C(=O)NCCN1C(=O)C[C@H](N)Cc1cc(F)c(F)cc1F — Vdss/F (human, male, plasma; oral, steady state, DP treatment): 2010 ± 260 L
CC1(C)OC[C@H](c2ccc(C(F)(F)F)cc2)N[C@@H]1c1ccc(Cl)c(Cl)c1 — logD (shake-flask, 1-octanol/buffer; pH 7.4): > 4.7
COc1cc2c3cc1Oc1c(OC)c(OC)cc4c1[C@@H](Cc1ccc(O)c(c1)Oc1ccc(cc1)C[C@@H]3N(C)CC2)N(C)CC4 — remaining compound (mouse plasma, K3EDTA; 0 h, 25-26 °C, room temperature): 100%
C[C@H]1CNCCCN1S(=O)(=O)c1cccc2cncc(F)c12 — subjects with punctate keratitis (healthy adult men; ocular, 1 drop per eye twice daily, 8 days, adverse drug reaction): 11.1%
O=C(Nc1ccccc1)c1cc([N+](=O)[O-])ccc1[76Br] — intact radiotracer (heparinized rat blood; 30 min): 10%
Cc1cc(C)c(CNC(=O)c2cc(Cl)c3c(c2C)O[C@@](C)([C@H]2CC[C@H](N(C)C)CC2)O3)c(=O)[nH]1 — grade ≥3 TEAE incidence (viral enterocolitis, CTCAE v4.0; human, relapsed/refractory NHL; oral, 200 mg once daily, overall, onset after cycle 1 day 1): 4.2%
CC1(CNC(=O)[C@H](CN)NC(=O)c2ccc(-c3ccccc3)cc2)NC(=O)NC1=O (some centres unmarked) — logD (octanol/buffer; pH 7.4): 1.01
CCOC(=O)N1C[C@@H](c2ccc(C(F)(F)F)cc2)N[C@@H](c2ccc(F)c(C#N)c2)C1 — logD (shake-flask, 1-octanol/buffer; pH 7.4): > 4.7
O=C(O)c1cccc(CSc2nnc(-c3ccncc3)o2)c1 — logD (octanol/buffer; pH 7.4): -0.44
CCO[C@H]1CCN(Cc2c(OC)cc(C)c3[nH]ccc23)[C@H](c2ccc(C(=O)O)cc2)C1 — unbound AUC0–12 (human moderate hepatic impairment, plasma; oral, 200 mg single dose, mean): 4650 ng·h/mL
CN1CCN(c2cccc3c2CCN(C(=O)/C=C/c2c(-n4cnnn4)ccc(Cl)c2F)[C@@H]3C(=O)Nc2ccc(C(=O)O)cc2)C(=O)C1 — subjects with any adverse event (healthy human subjects; intravenous infusion, 4 mg/h, 2 h): 33.3%
CC[C@@H]1CN(C(=O)NCC(F)(F)F)C[C@@H]1c1cnc2cnc3[nH]ccc3n12 — absorption lag time (population PK modelling; human; oral, extended-release formulation, outliers re-estimated): 0.154 h

Some of these lines once more:
Cc1cc(-c2nccc3c2ccn3CC(=O)Nc2ccc(-c3cnccn3)cn2)ccn1 — skin disorder TEAEs (healthy human volunteers; oral, 15 mg once daily, 14 days, multiple ascending dose): 11.1%
CN(C)CCCN1c2ccccc2CC(O)c2ccccc21 (centres unmarked) — chromatographic hydrophobicity index (reverse phase LC, C18; acetonitrile gradient, 0.1% formic acid; converted from retention time; baseline: Valko CHI standards): 46.3
O=C(Nc1nc2cccc(-c3ccc(CN4CCS(=O)(=O)CC4)cc3)n2n1)C1CC1 — patients with adverse event (measured: anaemia; rheumatoid arthritis patients; oral, 75 mg once daily, 4 weeks, any relatedness): 4.5%
C[C@@H](Oc1ccc(S(C)(=O)=O)cc1C(=O)N1C[C@@H]2C[C@]2(c2cc(C(F)(F)F)on2)C1)C(F)(F)F — %AUC extrapolated (healthy young humans, plasma; oral, 25 mg single dose): 35%
C=CC(=O)N1CCC[C@@H](n2nc(-c3ccc(Oc4ccccc4)cc3)c3c(N)ncnc32)C1 — GSH adduct formation (PBS; 100 µM, 23 h, pH 7.45, 37 °C, together with: GSH 5 mM): 91%
Cc1cc(Nc2cc3ncccc3c(N[C@@H]3C[C@H]4CC[C@@H](C3)N4CCC#N)n2)n[nH]1 — skin subcutaneous disorders incidence (healthy human subjects; oral, 300 mg, 2 weeks, single ascending dose): 17%
CCOc1c([C@H](C)n2nc(C)c3c(N)ncnc32)cc(Cl)c(F)c1[C@@H]1CNC(=O)C1 — observations with HR ≤100 bpm (ECG; previously treated B-cell malignancy patients; oral, 20 mg once daily, baseline below thresholds): 100%
